{"data": "Values quoted from earlier work that unrelated publications cite", "HLA class I histocompatibility antigen, B alpha chain allele B*51:01": "HLA class I histocompatibility antigen, B alpha chain, allele B*51:01 (Homo sapiens, UniProt P01889)", "note": "Compare with care: the assays were run in different laboratories."}
{"Molecule": "DEQSIAEA", "tested on": "HLA class I histocompatibility antigen, B alpha chain, allele B*18:01 (Homo sapiens, UniProt P01889)", "test": "peptide-MHC binding", "system": "peptide", "quantity": "IC50", "result": "4.48 nM"}
{"Molecule": "[2H]C([2H])([2H])C1(C([2H])([2H])[2H])NC(=O)N(c2ccc(F)c(C(F)(F)F)c2)C1=O", "tested on": "Schistosoma mansoni", "system": "juvenile, infected mice", "conditions": "oral, 50 mg/kg single dose", "quantity": "worm burden reduction", "result": "9%"}
{"Molecule": "FPSQQPYL", "tested on": "HLA class I histocompatibility antigen, B alpha chain allele B*51:01", "test": "peptide-MHC binding", "system": "peptide", "quantity": "IC50", "result": "3.53 nM"}
{"Molecule": "O=C(O)C(F)(F)C(F)(F)C(F)(F)C(F)(F)C(F)(F)C(F)(F)C(F)(F)F", "system": "cancer patients", "conditions": "phase I dose-escalation trial", "quantity": "t1/2", "result": "116 days"}
{"Molecule": "RYSIFFDY", "tested on": "HLA class I histocompatibility antigen, B alpha chain, allele B*39:01 (Homo sapiens, UniProt P01889)", "test": "peptide-MHC binding", "system": "peptide", "quantity": "IC50", "result": "> 5000 nM"}
{"Molecule": "Cc1ccnc(-c2cc(C)ccn2)c1.[Ru+2].c1ccc(-c2ccnc3c2ccc2c(-c4ccccc4)ccnc23)cc1.c1ccc(-c2ccnc3c2ccc2c(-c4ccccc4)ccnc23)cc1", "quantity": "logP", "result": 1.4}
{"Molecule": "LPYPQPQL", "tested on": "HLA class I histocompatibility antigen, B alpha chain allele B*51:01", "test": "peptide-MHC binding", "system": "peptide", "quantity": "IC50", "result": "32.3 nM"}
{"Molecule": "[Ru+2].c1ccc(-c2ccccn2)nc1.c1ccc(-c2ccccn2)nc1.c1ccc(-c2ccccn2)nc1", "system": "aerated acetonitrile", "quantity": "singlet oxygen quantum yield", "result": 0.56}
